# Measurements collected from several papers.
# Each line is one published result; not all experiments were run side by side. “And” joins repeats or separate records; there may be more than shown.
# Target: Tyrosine-protein kinase TXK (TXK, Homo sapiens, UniProt P42681)
# Sequence (P42681 1-527, as in one of the studies): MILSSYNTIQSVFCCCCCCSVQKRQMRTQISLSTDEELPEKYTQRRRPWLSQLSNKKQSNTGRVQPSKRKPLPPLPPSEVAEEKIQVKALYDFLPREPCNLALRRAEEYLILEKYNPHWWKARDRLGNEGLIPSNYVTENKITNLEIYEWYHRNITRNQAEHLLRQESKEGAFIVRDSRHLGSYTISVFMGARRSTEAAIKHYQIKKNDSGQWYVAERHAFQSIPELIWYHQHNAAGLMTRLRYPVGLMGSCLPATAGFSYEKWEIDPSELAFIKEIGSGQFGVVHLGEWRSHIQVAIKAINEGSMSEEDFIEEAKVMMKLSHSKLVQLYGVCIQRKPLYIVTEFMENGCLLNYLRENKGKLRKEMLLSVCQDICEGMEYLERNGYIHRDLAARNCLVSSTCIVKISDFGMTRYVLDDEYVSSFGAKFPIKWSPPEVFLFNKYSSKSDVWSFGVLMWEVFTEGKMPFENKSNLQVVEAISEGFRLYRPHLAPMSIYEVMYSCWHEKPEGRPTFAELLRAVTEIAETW
Compound,test,test system,setting,how to read,quantity,result
C=CC(=O)Nc1cccc(-c2cnc3[nH]cc(C(=O)NC(C)(C)C)c3n2)c1,kinase activity,,0.1 µM,,inhibition,55% and 57%
COc1ccc(NC(=O)Nc2ccc3c(c2)C(=O)N(C(C)CO)CC(C)C(CN(C)Cc2ccc4c(c2)OCO4)O3)cc1 (stereo not drawn),"kinase activity, KinaseProfiler",,"0.03 µM, species human",reference: control,remaining activity,101%
COc1c(OCCCN2CCOCC2)ccc2c1N=C(NC(=O)c1cnc(N)nc1)N1CCN=C21,"kinase activity, inhibitor",,1 µM,reference: untreated control,remaining activity,86%
C=CC(=O)N1CCc2ccc(-n3c(=O)ccc4cnc5ccc(-c6cnn(C)c6)cc5c43)cc21,KINOMEscan,,1 µM,reference: DMSO control,remaining binding,59%
COc1cc(Nc2nc(C)cc(-c3cnn4nc(OC)ccc34)n2)cc(C(F)(F)F)c1,"binding, competition with immobilised ligand",,1 µM,,remaining binding,91%
CNC(=O)C1CCN(c2cc(C)c(F)cc2NC(=O)c2ccc(-c3cc(O)ccc3C)c(C)c2)CC1,"binding, competition with immobilised ligand",,1 µM,,remaining binding,9.5%
Cc1cccc(O[C@H]2CCC[C@@H](C(C)CNCc3ccncc3)C2)c1 (relative stereo),"enzyme activity, inhibitor",,10 µM,,inhibition,-4%
O=C(Cc1ccc(OCc2ccccc2)cc1)NC1(C(=O)O)CCN(C(=O)c2ccc(-c3cccc(Cl)c3)cc2)CC1,"enzyme activity, inhibitor",,10 µM,,activity vs control,112%
CNC1C[S+]2CC[S+]3CC[S+](C1)[Ru-4]321([N]=C=S)[n]2c3ccc(OC)cc3c3c4c(c5cc(F)c[n+]1c5c32)C(=O)NC4=O (stereo not drawn),KinomeScan,,0.1 µM,reference: untreated,remaining binding,100%
CCN1CCN(Cc2ccc(NC(=O)c3ccc(C)c(NC(=O)c4cncc(-c5cccs5)c4)c3)cc2C(F)(F)F)CC1,"binding, competition with immobilised ligand",,1 µM,,remaining binding,0.65%
CCN1CCN(Cc2ccc(C(=O)Nc3ccc(C)c(NCc4cnc5[nH]ccc5c4OC)c3)cc2C(F)(F)F)CC1,"binding, competition with immobilised ligand",,1 µM,,remaining binding,3.2%
CCn1cc(C(=O)O)c(=O)c2c(N)c(F)c(NC3CCCCC3)cc21,kinase activity,,"0.1 µM, together with: ATP at Km",,inhibition,-10.6%
NC(=O)[C@@H](O)C[C@H]1CCc2sc3ncnc(O[C@H]4CC[C@H](N5CCOCC5)CC4)c3c21,"enzyme activity, inhibitor",,10 µM,,inhibition,79%
Cc1ccc(C(=O)Nc2ccc(CN3CCN(C)CC3)c(C(F)(F)F)c2)cc1C#Cc1cnc2cccnn12,"target engagement, NanoBRET",human cells,,,upper asymptote,87.4
Cc1ccc(-c2c(/C=C(\C#N)C(=O)NC(C)C)n(CCCO)c3ncnc(N)c23)cc1,"cell-free assay, competition with immobilised ligand",,1 µM,,remaining binding,100%

# Repeated from above:
Compound,test,test system,setting,how to read,quantity,result
COc1c(OCCCN2CCOCC2)ccc2c1N=C(NC(=O)c1cnc(N)nc1)N1CCN=C21,"kinase activity, inhibitor",,1 µM,reference: untreated control,remaining activity,86%
C=CC(=O)N1CCc2ccc(-n3c(=O)ccc4cnc5ccc(-c6cnn(C)c6)cc5c43)cc21,KINOMEscan,,1 µM,reference: DMSO control,remaining binding,59%
